# Measurements of several laboratories.
# Lines come from different studies, so protocols differ.
# CSNK1A1: Casein kinase I isoform alpha (CSNK1A1, Homo sapiens, UniProt P48729)
# UniProt P48729, sequence (whole entry, looked up): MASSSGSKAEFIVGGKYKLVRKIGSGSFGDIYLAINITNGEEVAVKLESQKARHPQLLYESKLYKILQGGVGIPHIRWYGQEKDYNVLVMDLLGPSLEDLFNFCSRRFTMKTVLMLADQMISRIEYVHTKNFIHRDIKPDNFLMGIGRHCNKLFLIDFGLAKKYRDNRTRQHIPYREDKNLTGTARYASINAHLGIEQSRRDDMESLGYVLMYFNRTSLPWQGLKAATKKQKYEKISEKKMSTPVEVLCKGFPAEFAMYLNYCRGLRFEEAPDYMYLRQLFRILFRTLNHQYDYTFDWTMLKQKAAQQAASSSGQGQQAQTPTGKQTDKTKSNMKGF
# IAPP: Islet amyloid polypeptide (IAPP, Homo sapiens, UniProt P10997)
# UniProt P10997, sequence (whole entry, looked up): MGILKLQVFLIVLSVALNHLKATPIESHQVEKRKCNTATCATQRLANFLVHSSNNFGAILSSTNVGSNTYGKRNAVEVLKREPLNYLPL
# CTSD: Cathepsin D (CTSD, Homo sapiens, UniProt P07339)
# UniProt P07339, sequence (whole entry, looked up): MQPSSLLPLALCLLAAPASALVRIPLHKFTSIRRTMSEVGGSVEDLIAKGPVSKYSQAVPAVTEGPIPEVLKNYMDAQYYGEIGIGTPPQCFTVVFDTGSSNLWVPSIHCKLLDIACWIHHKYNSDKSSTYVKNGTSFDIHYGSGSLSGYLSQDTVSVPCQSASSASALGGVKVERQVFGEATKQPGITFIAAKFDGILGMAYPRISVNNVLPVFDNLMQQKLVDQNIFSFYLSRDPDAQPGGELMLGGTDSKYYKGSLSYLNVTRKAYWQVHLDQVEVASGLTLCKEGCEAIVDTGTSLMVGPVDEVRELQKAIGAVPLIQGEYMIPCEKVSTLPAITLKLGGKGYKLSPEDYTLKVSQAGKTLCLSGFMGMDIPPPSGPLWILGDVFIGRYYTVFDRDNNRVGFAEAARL
# UniProt Q47319, sequence (whole entry, unmodified, looked up): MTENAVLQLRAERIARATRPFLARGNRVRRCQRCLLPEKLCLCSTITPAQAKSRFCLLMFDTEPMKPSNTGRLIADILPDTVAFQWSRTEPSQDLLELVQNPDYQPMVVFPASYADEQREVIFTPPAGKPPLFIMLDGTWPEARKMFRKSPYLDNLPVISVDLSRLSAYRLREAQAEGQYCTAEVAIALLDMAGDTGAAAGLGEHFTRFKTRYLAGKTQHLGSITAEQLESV
# UniProt Q13470, sequence (whole entry, looked up): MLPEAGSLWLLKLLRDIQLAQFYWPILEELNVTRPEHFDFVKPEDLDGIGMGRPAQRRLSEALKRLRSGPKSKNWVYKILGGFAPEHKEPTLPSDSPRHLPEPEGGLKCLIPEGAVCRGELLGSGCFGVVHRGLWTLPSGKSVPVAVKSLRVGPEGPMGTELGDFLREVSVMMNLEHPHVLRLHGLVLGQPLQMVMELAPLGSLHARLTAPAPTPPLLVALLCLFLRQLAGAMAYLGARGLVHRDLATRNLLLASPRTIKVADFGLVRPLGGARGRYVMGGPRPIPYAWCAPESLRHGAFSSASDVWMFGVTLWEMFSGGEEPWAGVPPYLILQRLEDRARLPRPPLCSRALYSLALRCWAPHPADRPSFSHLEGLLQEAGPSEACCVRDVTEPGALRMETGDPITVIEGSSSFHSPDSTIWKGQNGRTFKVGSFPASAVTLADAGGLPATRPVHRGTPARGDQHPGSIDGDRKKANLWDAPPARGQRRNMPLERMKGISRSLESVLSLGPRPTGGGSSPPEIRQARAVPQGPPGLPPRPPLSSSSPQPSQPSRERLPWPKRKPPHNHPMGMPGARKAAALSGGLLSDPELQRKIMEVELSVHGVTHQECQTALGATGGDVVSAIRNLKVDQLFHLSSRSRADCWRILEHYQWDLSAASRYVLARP
# UniProt Q8TDS4, sequence (whole entry, looked up): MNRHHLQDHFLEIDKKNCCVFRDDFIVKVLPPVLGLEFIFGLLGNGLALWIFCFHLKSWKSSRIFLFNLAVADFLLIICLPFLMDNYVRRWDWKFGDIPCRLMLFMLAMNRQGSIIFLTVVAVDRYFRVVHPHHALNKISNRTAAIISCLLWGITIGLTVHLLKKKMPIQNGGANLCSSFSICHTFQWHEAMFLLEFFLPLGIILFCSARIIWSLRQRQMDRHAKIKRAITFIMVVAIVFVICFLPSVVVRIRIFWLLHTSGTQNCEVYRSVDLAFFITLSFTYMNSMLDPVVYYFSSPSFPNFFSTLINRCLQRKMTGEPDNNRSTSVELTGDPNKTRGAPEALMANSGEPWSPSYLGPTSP
# UniProt P09622, sequence (whole entry, unmodified, looked up): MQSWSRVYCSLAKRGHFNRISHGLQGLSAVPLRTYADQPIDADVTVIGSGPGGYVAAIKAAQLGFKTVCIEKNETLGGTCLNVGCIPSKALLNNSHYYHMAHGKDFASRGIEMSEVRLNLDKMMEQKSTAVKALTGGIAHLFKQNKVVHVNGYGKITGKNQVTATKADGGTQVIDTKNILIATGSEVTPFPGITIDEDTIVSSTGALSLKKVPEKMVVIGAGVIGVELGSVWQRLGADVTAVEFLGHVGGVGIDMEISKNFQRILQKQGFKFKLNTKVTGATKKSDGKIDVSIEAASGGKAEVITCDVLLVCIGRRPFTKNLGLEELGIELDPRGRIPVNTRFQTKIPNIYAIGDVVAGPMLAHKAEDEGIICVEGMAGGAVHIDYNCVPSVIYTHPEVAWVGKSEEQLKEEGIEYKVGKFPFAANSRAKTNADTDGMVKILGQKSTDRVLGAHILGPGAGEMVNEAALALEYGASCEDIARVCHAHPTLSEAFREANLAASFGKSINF
# UniProt P00698, sequence (whole entry, looked up): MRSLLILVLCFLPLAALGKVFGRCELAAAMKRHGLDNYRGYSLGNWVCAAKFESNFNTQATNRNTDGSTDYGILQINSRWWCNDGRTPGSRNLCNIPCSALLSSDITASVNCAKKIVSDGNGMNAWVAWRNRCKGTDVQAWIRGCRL
# UniProt Q92499, sequence (whole entry, looked up): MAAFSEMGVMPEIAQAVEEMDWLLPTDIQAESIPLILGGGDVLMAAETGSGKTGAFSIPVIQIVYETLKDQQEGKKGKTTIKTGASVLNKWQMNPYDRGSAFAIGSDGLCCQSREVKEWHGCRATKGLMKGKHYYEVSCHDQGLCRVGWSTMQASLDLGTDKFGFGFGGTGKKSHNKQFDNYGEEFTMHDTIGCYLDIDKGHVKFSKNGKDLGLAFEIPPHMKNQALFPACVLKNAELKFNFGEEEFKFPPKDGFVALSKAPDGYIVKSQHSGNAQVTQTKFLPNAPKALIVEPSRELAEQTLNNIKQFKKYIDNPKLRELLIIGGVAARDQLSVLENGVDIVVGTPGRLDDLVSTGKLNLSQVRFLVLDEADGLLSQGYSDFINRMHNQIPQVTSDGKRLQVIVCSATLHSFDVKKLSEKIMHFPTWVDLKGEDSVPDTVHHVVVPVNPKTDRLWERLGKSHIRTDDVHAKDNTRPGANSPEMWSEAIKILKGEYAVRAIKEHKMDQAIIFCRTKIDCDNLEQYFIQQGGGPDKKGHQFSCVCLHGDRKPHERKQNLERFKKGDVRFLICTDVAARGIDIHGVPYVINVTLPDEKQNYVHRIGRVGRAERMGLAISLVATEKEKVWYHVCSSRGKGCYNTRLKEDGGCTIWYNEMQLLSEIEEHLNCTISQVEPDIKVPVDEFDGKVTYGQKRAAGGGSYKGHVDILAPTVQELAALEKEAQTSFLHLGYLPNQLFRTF
# UniProt P16234, sequence (whole entry, looked up): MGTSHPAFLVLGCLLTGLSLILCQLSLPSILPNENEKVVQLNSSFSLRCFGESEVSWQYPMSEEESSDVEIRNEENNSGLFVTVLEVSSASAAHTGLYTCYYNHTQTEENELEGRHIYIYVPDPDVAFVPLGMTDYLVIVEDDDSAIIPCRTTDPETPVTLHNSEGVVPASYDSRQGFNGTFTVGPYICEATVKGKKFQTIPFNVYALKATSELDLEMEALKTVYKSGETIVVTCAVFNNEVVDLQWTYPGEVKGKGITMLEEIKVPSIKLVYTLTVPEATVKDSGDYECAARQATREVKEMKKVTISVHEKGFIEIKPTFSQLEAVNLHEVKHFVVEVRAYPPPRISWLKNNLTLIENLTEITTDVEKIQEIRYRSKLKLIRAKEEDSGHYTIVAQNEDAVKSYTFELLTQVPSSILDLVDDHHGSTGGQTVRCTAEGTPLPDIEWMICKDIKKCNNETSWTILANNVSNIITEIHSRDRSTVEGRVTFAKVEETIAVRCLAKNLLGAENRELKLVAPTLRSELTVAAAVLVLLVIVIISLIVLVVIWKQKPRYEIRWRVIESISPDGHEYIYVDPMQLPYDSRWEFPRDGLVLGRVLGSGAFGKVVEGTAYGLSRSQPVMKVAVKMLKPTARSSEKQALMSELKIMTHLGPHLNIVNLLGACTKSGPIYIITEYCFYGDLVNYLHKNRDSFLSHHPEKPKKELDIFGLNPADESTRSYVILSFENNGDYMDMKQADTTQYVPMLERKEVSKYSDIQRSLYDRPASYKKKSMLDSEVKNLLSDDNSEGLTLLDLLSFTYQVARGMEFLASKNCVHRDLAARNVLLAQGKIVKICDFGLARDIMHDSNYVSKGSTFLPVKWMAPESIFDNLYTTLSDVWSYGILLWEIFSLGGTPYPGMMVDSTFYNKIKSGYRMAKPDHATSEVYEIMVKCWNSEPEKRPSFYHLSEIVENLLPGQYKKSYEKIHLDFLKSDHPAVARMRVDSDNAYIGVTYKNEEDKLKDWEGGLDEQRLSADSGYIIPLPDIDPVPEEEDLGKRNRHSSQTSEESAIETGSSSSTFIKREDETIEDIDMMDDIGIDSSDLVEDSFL
# UniProt P50750, sequence (whole entry, looked up): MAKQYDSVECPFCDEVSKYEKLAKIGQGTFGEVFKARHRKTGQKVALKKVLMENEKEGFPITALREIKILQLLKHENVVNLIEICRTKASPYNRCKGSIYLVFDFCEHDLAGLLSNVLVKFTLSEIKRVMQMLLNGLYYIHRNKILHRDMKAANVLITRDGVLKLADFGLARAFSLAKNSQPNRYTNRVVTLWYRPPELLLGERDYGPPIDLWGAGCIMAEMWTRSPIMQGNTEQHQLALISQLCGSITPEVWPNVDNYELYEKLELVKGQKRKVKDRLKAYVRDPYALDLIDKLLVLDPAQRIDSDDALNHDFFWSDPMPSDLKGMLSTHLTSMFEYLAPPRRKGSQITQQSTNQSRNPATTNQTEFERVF
SMILES,target,observed,technique,notes,Kd [µM]
CCc1ccc(C2C(C#N)C(=N)SC(=N)C2C#N)cc1 (centres unmarked),CSNK1A1,binding,SPR,,> 50
CCCN1CCN(c2ccc(-c3cncc(Cl)c3N3CCC4(CCNC4=O)CC3)cc2)CC1,"CDK9 (Homo sapiens, UniProt P50750)",cell-free assay,,lysate,4.6
c1ccc(CNCc2ccc(CN3CCCNCCNCCCNCC3)cc2)nc1,CSNK1A1,binding,SPR,,> 50
C[S+](CC[C@H](N)C(=O)O)C[C@H]1O[C@@H](n2cnc3c(N)ncnc32)[C@H](O)[C@@H]1O (some centres unmarked),"tapT (Escherichia coli, UniProt Q47319, D137N)",binding,ITC,,390
C=CC1=C(C)C2=Cc3c(C=C)c(C)c4[n]3[Fe][n]3c(c(C)c(CCC(=O)O)c3=CC3=NC(=C4)C(C)=C3CCC(=O)O)=CC1=N2,"HCAR2 (Homo sapiens, UniProt Q8TDS4)",binding,,,~1
CNC(=O)c1ccc(OC)c(Br)c1,CSNK1A1,binding,SPR,,> 50
C[C@@H]1O[C@@H](O[C@H]2[C@H](Oc3cc(O)c4c(c3)O[C@H](c3ccc(O)cc3)CC4=O)O[C@H](CO)[C@@H](O)[C@@H]2O)[C@H](O)[C@H](O)[C@H]1O,IAPP,binding,ITC,,5.35
O=[N+]([O-])c1ccc(O)c2ncccc12,"mcr1 (Escherichia coli, UniProt A0A0R6L508)",binding,SPR,,7.6
OC[C@H]1OC(O)[C@H](O)[C@@H](O)[C@@H]1O (some centres unmarked),"ATP-dependent RNA helicase DDX1 (Homo sapiens, UniProt Q92499)",binding,MST,,129
N#Cc1cncc2c1NCCC2,CSNK1A1,binding,SPR,,> 50
NC(=O)c1ccc[n+]([C@@H]2O[C@H](COP(=O)([O-])OP(=O)(O)OC[C@H]3O[C@@H](n4cnc5c(N)ncnc54)[C@H](O)[C@@H]3O)[C@@H](O)[C@H]2O)c1,"DLD (Homo sapiens, UniProt P09622, K430R)",binding,SPR,,1.86
Cc1cc(Nc2ccc(Cl)cc2)c2ccccc2n1,CSNK1A1,binding,SPR,,> 50
Nc1ncnc2c1ncn2[C@@H]1O[C@H](C[C@@H](N)CC[C@H](N)C(=O)O)[C@@H](O)[C@H]1O,"tapT (Escherichia coli, UniProt Q47319)",binding,SPR,,795
c1cc(CN2CCCNCCNCCCNCC2)ccc1CN1CCCNCCNCCCNCC1,CSNK1A1,binding,SPR,,> 50
CC(=O)N[C@H]1[C@H](O[C@H]2[C@H](O)[C@@H](NC(C)=O)C(O)O[C@@H]2CO)O[C@H](CO)[C@@H](O[C@@H]2O[C@H](CO)[C@@H](O)[C@H](O)[C@H]2NC(C)=O)[C@@H]1O (some centres unmarked),"Lysozyme C (LYZ, Gallus gallus, UniProt P00698)",binding,,,14.8
COc1ccc([C@@H]2CC(=O)c3c(O)cc(O[C@@H]4O[C@H](CO)[C@@H](O)[C@H](O)[C@H]4O[C@@H]4O[C@@H](C)[C@H](O)[C@@H](O)[C@H]4O)cc3O2)cc1O,IAPP,binding,ITC,,4.67
Nc1ncnc2c1ncn2[C@@H]1O[C@H](COP(=O)(O)OP(=O)(O)OP(=O)(O)O)[C@@H](O)[C@H]1O,"dnaA (Escherichia coli, UniProt P03004, V292M)",binding,,,0.04
Cn1cc(C(=O)Nc2cccc(C(=O)O)c2)ccc1=O,"Bromodomain-containing protein 4, BD1 (BRD4, Homo sapiens, UniProt O60885)",binding,competition with immobilised ligand,,33
Cc1cnc(-c2ccc(-c3ccc(NC(=O)Nc4c(F)cc(F)cc4F)cc3F)c3c2C(=O)NC3)[nH]1,"PDGFRA (Homo sapiens, UniProt P16234)",binding,competition with immobilised ligand,,0.0021
CC(C)CC(=O)N[C@H](C(=O)N[C@H](C(=O)N[C@@H](CC(C)C)[C@@H](O)CC(=O)N[C@@H](C)C(=O)N[C@@H](CC(C)C)[C@@H](O)CC(=O)NCCOCCOCCC(=O)NCCCC[C@H](NC(=O)CN1CCN(CC(=O)O)CCN(CC(=O)O)CC1)C(=O)O)C(C)C)C(C)C,CTSD,binding,SPR,,7.85
O=C(Nc1ccccc1)Nc1ccccn1,"CSNK1D (Homo sapiens, UniProt P48730)",binding,SPR,,> 50
Cc1cc(Nc2cc3ncccc3c(N[C@@H]3C[C@H]4CC[C@@H](C3)N4CCC#N)n2)n[nH]1,"TNK1 (Homo sapiens, UniProt Q13470)",binding,competition with immobilised ligand,,0.051
CC(C)CC(=O)N[C@H](C(=O)N[C@H](C(=O)N[C@@H](CC(C)C)[C@@H](O)CC(=O)N[C@@H](C)C(=O)N[C@@H](CC(C)C)[C@@H](O)CC(=O)NCCOCCC(=O)NCCCC[C@H](NC(=O)CN1CCN(CC(=O)O)CCN(CC(=O)O)CC1)C(=O)O)C(C)C)C(C)C,CTSD,binding,SPR,,3.2

# Excerpt of the above:
SMILES,target,observed,technique,notes,Kd [µM]
C[C@@H]1O[C@@H](O[C@H]2[C@H](Oc3cc(O)c4c(c3)O[C@H](c3ccc(O)cc3)CC4=O)O[C@H](CO)[C@@H](O)[C@@H]2O)[C@H](O)[C@H](O)[C@H]1O,IAPP,binding,ITC,,5.35
O=C(Nc1ccccc1)Nc1ccccn1,"CSNK1D (Homo sapiens, UniProt P48730)",binding,SPR,,> 50
C=CC1=C(C)C2=Cc3c(C=C)c(C)c4[n]3[Fe][n]3c(c(C)c(CCC(=O)O)c3=CC3=NC(=C4)C(C)=C3CCC(=O)O)=CC1=N2,"HCAR2 (Homo sapiens, UniProt Q8TDS4)",binding,,,~1
O=[N+]([O-])c1ccc(O)c2ncccc12,"mcr1 (Escherichia coli, UniProt A0A0R6L508)",binding,SPR,,7.6
